Experimental data from different studies.
Every numbered part comes from another study and shows a few of its results, in no order. Substitutions count along the parent as printed.

Study 1
Target: CCNE1, cyclin fold, Cln2 fusion (human)
Technique: yeast growth competition, sequencing
Medium: yeast
Notes: weak parent motif
Baseline: not given
Direction: higher = stronger binding
Starting sequence: SAMHD1 docking peptide (human); ASKSRVQLFKDDP
Change	normalised enrichment score
K3L	0.0752
L8N	-0.0628
F9R	0.0715
D12F	-0.167
L8H	-0.362
Q7E	-0.274
D12H	0.328
S4M	0.143
K3E	0.0974
S2V	0.231
D11M	0.446
F9N	0.0923
S2C	0.103
D11N	0.257
Q7I	-0.23
Q7K	0.32
K3P	0.315
V6E	-0.0973
S2G	0.00842
L8V	-0.0247
F9P	-0.0461
D12Q	-0.0346
K10S	0.283
D11R	0.402
L8G	0.16

Study 2
Target: RING finger protein unkempt homolog, zinc fingers 1-6, GST-SBP tag (UNK, Homo sapiens, UniProt Q9C0B0, residues 30-357)
Technique: RNA Bind-n-Seq
Form: RNA
Medium: in vitro
Concentration: not given
Notes: RNA with constant flanks, ends assumed
Baseline: input RNA pool
Direction: higher = stronger binding
All sequences stand within: GGGAGUUCUACAGUCCGACGAUC … CAACAGAGGAUUGAGCAUCA
Construct (chain): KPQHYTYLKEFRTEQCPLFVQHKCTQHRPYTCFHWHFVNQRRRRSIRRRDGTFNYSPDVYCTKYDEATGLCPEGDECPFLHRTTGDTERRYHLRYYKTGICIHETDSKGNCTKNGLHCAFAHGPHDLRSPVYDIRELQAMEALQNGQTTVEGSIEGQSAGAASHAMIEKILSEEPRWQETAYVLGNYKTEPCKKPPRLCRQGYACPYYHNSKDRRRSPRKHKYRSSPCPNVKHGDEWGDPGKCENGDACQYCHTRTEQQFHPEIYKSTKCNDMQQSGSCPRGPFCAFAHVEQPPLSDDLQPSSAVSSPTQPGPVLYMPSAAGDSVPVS
Sequence	bound/input enrichment
GGUUCUCUGCCCCCACCCCCGGCCCUUUGUUUGACUUGCGUCGUCUGAUACUCAGUAUUGCCGCUUUUUGUCCGCAUGUUACUCCCUGUAAAUACGCUGUUAUACAUACUGUUAACACCC	1.02 ratio
GAGACUAAUGUUUAACUUUGAGAUACGUUUUCUGAGAGUUGCUAACCGGUUGGAGAUGAACUCCGAGAAUAGGGUUCACCUUUUUCGUCUGUCAGCGGGUUAUCGAGUGCCCAGUGGUGU	0.176 ratio
UCUGAGGAAAGGAGACCCUCUCCCAAGGAGUCCAAGGAGGCAGAUGUGGCCACAGUCCGUUCCGGGGAAAAAAGGAGUCACCAUCUAGCUCACUACAGGGCUUCAGAAGAAGAACCUGAA	0.096 ratio
UCAGGGGGCACACUGAGUGGUGGUAUUCUCUCCAGCGGCAAGGGAAAGUACAGCCGGUCCGAAGUUCAAGCUGAUGUCCAAAAGGAAAUUUUCCCCAAAGACACAGCCAGUCUUGGUGCA	0.264 ratio
UGUAUCGCCUUUUUUAACAUCCUUAAUGAGUUAAACGACUAUGCAGGACAGCGAGAGGCCGCCGCAGAAGAAAUGGCGCACAGAGUAUAUGGUGAAUUAAUGAGAUAUGCCCAUGAUCUG	0.238 ratio
UAUGCCUUCACCAGCUAUGGCAUUAGCCCACAGGCCAAGAUAACUUAUAAUAUCAAAAUGAACCGAAGAAAAUGUGUUCACUGGAAACUGGCUGUUGAGCCCCUCCAAUGGGAGCUGAGG	0.336 ratio
CCUCCUUCCCCCCACCCAAUCCUUUUUUUUUUCUUUUUUGCUUUUCUUUUCUUUUUUUUCCGUUUUUAUUUACUUUACCUAGUAUGCCUUUUUUUAGUUGCUUCUCAAGUCAGAAAACUU	41.2 ratio
UUGUCCCCAGGUGGGGGGAAGCAGGGGAGAGAAAAUGGUAGCCAUUUUUACAUUGUUUUGUACCGUAUUUAUUGAUUCAGGAAACAAACACAAAAUUCUGAAUAAAAUGACUUGGAAACU	0.375 ratio
UUGUAAUGUGGCCUGAAAACAAGCUAACUGUAUUAGAAACUAUUCAAAAACUAGGUAUUUUCCGUGACCUGUAGGCAGUGGCAAAUACAGACAUGUGAACCUUGAAUACAUUACAUUUCU	0.735 ratio
ACAGUUAGCAAGCGAAGUGUUAAAUGGAGAAGAUGCUUGUUUUUAUUAAACAUUUGGAGAUUCCGAUAAUUUACAUUUUAACUGAAUGUCUAAAGUGAUUAUCUUCCCCUCCCUCCCCCA	0.328 ratio
AGUAGUUUUAAGCUUGUUUGCACAGUUCUUUUUUUCCAUUGGAAAUGGAAUUCAUUGCCUCCGGUCUUUUUAAAUAGUGUAUUAUUAUCGUUGGGGCUGGCUCUAUGCUUGAAAACCAGU	4.65 ratio

Study 3
Target: Sal-like protein 4, full length isoform A (SALL4, Homo sapiens, UniProt Q9UJQ4, residues 1-1053)
Chain of UniProt Q9UJQ4 (whole entry, looked up): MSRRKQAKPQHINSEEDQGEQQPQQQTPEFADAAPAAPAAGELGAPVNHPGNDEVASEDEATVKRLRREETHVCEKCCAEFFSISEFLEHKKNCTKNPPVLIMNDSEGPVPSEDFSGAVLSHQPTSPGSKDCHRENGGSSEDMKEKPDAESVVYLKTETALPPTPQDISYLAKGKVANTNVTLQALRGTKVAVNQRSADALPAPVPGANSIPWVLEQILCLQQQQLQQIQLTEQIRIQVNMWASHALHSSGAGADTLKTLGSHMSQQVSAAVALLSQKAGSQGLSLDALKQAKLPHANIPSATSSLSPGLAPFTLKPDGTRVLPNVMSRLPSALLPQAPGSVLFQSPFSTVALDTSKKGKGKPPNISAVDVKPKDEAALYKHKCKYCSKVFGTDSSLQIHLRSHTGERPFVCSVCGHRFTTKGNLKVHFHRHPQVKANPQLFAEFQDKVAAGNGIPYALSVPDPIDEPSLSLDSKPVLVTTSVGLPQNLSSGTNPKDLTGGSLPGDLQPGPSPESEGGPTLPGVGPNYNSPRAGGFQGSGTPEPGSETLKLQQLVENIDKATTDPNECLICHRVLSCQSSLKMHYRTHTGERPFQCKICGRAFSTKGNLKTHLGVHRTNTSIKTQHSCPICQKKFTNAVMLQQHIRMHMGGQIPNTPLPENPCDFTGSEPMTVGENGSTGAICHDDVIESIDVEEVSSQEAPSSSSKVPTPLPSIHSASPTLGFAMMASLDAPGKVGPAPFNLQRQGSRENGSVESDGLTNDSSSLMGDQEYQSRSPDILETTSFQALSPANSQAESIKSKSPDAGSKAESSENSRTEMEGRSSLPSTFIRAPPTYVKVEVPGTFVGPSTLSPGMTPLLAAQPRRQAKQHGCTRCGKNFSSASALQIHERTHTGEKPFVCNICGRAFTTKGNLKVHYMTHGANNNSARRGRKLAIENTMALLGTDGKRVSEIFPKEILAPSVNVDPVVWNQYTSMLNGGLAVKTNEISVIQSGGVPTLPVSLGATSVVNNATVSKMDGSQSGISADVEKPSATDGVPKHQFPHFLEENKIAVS
Technique: universal PBM
Form: double-stranded DNA, one strand shown
Medium: in vitro
Concentration: 600 nM
Notes: 8-mer, flanks averaged, mean of replicates
Direction: higher = stronger binding
Sequence	E-score
CTTCGTCC	-0.219
AGGCCCGC	-0.339
AGTGACAC	0.0155
AGCCTGAA	-0.0641
CGAACTTC	-0.0148
GCCCTGCC	-0.318
CTTGTATA	0.284
CACCCGAA	0.0151
CTACATAC	0.3
GATCTTGC	0.0303
CATCAGGG	-0.0982
CTCCTAGA	-0.0167
ATGGGAAG	-0.0348
GCCTCTGA	-0.19
GGCAATTA	0.228
CTTCTACC	-0.172
TCAATCGA	0.113
CCACTTTA	0.0583
CCTCTCCG	-0.357
CACTCGAC	-0.151
GTGGGGGA	-0.134
GCGTCAAA	0.0208
AAAGAAGC	0.0646
TGAGAAAA	0.19
AGAGGTAG	-0.000245

Study 4
Target: ABI1, truncated, D143A, DHFR fusion (Arabidopsis thaliana)
Technique: DHFR PCA, deep sequencing
Medium: yeast
Notes: methotrexate growth selection, single substitutions
Added: (+)-ABA 0.39 µM
Baseline: wild-type fitted maximum
Direction: higher = stronger binding
Starting sequence: PYL1, truncated, DHFR fusion (Arabidopsis thaliana); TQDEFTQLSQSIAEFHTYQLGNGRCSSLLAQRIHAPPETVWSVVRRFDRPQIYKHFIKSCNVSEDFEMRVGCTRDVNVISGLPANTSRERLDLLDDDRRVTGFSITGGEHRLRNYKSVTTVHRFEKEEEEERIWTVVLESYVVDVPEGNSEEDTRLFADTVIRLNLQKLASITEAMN
Change	relative binding score [%]
G108T	-2.01
N85C	60.6
S63N	35.7
N22I	40.4
T6F	25.7
T119R	-1.07
V40T	-1.24
V78F	104
G107H	12.7
C25S	1.93
A35P	-7.59
G71E	-7.08
L8Q	8.39
F5I	44.6
I133F	21
Y53S	-10.1
D96P	-6.54
P37Y	-3.05
Q2M	62.4
C25A	39.5

Study 5
Target: Interferon regulatory factor 7, full length, phosphomimetic (IRF7, Homo sapiens, UniProt Q92985, residues 1-503, S471D/S472D/S475D/S476D/S477D/S483D/S484D/S487D)
Chain of UniProt Q92985 (whole entry, unmodified, looked up): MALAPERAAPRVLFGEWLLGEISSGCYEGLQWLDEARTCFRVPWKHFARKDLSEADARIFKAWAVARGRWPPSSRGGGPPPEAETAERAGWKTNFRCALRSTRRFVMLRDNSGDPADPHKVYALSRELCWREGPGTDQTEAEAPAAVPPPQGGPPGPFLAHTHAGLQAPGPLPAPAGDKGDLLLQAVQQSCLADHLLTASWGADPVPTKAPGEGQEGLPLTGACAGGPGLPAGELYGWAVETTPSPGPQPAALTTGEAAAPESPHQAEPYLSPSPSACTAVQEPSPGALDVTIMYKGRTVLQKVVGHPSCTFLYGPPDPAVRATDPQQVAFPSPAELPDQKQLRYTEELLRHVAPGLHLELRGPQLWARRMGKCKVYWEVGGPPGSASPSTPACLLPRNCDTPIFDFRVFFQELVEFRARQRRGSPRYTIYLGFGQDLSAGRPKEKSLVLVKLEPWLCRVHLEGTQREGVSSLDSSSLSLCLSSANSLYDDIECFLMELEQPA
Technique: protein-binding microarray
Form: double-stranded DNA, one strand shown
Medium: in vitro
Concentration: 2200 nM top
Notes: 60-bp whole probe
Added: salmon DNA 0.4 mg/ml
Baseline: random background probes
Direction: higher = stronger binding
All sequences stand within: GCCTAGCAC … GTCTTGATTCGCTTGACGCTGCTG
Sequence	fitted relative affinity
TTAGGACTGCTTTTCCTTTGGTGCTAG	1.93 z-score
GAAGGACTGCTTCTCCTGACGTGCTAG	0.551 z-score
TTAGGACTGGGTATCGGTTCGTGCTAG	0.479 z-score
TCACTTCTCGAGTGCCGGACTGTGCTA	1.6 z-score
TTACAACTGAGACTGGATTAGTGCTAG	0.0423 z-score
GACGGACTGGGAATCGGGACGTGCTAG	-0.809 z-score
GGTCCTTTCTGCCTCAGAGGGTGCTAG	0.732 z-score
GACGAACTAAGACTGGAGACGTGCTAG	-0.483 z-score
TCATCTCTAACCTCTCTAACTGTGCTA	1.23 z-score
TATGGTATTTTTTTCTAATTGTGCTAG	1.79 z-score
TTTTTTTTCATCATTGCCTAGTGCTAG	2.63 z-score
GACGATCTCTGTTTCGAGACGTGCTAG	2.2 z-score
GACGATTTCGGATTTCGAGACGTGCTA	3.8 z-score
TTAGGTATCGACTATCGTTTAGTGCTA	0.382 z-score
TTTGGACTGGGGTATCGGTTAGTGCTA	0.223 z-score
TCAACTCTTGCTTTTTAACTGTGCTAG	0.954 z-score
GAGACTTTGCTCTGTGCATAGGTGCTA	-0.0557 z-score
TTAGGGATCGGACTGGGTTAGTGCTAG	-0.619 z-score
TCATTTTTCACCTGCACACTGTGCTAG	2.93 z-score
